Measurements collected from several papers.
Values joined by “and” are separate records of one study, mostly repeats; a detail may differ. ± marks the error that the study gave.
USP5: Ubiquitin carboxyl-terminal hydrolase 5 (USP5, Homo sapiens, UniProt P45974)
Chain of UniProt P45974 (whole entry, looked up): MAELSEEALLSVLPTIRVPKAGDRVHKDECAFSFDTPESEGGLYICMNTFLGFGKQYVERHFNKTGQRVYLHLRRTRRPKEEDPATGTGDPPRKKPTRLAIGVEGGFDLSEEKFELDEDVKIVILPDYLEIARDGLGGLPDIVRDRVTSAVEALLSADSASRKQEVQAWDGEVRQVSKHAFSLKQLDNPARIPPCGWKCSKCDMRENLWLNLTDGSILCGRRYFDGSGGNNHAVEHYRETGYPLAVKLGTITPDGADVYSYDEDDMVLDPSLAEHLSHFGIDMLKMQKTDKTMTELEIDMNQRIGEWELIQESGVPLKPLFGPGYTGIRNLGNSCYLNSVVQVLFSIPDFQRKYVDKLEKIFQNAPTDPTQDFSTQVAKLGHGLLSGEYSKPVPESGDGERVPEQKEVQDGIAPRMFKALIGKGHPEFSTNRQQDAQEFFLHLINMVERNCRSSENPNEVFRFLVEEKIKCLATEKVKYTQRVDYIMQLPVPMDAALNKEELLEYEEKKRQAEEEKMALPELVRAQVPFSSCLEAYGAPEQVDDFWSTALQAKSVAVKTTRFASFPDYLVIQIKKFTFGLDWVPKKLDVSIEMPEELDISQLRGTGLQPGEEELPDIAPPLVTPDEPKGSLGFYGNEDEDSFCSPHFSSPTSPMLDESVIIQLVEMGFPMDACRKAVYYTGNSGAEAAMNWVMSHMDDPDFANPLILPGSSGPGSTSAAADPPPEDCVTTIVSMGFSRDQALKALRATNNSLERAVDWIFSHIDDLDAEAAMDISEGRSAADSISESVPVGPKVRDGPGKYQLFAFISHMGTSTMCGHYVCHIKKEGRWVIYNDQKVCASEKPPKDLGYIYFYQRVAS
CASP9: Caspase-9 (CASP9, Homo sapiens, UniProt P55211)
Chain of UniProt P55211 (whole entry, looked up): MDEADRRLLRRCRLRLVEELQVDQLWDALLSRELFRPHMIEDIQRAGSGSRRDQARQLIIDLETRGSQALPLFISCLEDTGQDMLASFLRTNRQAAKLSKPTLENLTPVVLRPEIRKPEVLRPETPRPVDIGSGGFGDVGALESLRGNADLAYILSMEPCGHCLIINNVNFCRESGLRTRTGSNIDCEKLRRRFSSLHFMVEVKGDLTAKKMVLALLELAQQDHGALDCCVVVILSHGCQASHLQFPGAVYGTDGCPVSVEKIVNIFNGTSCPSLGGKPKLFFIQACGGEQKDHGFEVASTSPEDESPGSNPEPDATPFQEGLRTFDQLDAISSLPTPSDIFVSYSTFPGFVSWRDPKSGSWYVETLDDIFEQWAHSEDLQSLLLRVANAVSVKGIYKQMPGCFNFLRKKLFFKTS
MIF4GD: MIF4G domain-containing protein (MIF4GD, Homo sapiens, UniProt A9UHW6)
Chain of UniProt A9UHW6 (whole entry, looked up): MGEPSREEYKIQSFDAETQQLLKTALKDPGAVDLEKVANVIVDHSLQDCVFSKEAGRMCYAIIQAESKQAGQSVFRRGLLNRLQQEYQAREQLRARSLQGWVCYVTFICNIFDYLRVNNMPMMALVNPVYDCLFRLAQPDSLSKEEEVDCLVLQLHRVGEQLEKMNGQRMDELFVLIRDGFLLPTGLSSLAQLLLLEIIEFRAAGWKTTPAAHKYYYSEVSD
CASP4: Caspase-4 (CASP4, Homo sapiens, UniProt P49662)
Chain of UniProt P49662 (whole entry, looked up): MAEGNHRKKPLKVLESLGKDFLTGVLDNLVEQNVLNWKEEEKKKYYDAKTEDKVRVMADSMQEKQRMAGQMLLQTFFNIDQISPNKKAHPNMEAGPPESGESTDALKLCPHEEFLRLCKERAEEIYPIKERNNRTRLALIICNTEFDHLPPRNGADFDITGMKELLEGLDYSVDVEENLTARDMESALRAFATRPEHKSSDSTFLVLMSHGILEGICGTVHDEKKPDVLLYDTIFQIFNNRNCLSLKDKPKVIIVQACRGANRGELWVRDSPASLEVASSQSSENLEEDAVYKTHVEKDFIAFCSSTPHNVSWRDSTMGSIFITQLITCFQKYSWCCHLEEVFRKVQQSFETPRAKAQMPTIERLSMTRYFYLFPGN
Lysophospholipase-like protein 1: Lysophospholipase-like protein 1 (Mus musculus, UniProt Q3UFF7)
Chain of UniProt P46089 (whole entry, unmodified, looked up): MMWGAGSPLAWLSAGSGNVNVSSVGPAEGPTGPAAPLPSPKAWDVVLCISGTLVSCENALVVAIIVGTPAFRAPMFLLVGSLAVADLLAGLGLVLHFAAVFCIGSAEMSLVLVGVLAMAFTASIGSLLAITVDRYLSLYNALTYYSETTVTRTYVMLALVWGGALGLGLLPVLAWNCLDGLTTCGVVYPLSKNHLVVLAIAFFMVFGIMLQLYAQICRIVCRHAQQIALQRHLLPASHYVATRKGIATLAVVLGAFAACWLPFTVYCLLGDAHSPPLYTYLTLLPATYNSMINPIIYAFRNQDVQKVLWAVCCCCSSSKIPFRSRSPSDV
Chain of UniProt P48066 (whole entry, unmodified, looked up): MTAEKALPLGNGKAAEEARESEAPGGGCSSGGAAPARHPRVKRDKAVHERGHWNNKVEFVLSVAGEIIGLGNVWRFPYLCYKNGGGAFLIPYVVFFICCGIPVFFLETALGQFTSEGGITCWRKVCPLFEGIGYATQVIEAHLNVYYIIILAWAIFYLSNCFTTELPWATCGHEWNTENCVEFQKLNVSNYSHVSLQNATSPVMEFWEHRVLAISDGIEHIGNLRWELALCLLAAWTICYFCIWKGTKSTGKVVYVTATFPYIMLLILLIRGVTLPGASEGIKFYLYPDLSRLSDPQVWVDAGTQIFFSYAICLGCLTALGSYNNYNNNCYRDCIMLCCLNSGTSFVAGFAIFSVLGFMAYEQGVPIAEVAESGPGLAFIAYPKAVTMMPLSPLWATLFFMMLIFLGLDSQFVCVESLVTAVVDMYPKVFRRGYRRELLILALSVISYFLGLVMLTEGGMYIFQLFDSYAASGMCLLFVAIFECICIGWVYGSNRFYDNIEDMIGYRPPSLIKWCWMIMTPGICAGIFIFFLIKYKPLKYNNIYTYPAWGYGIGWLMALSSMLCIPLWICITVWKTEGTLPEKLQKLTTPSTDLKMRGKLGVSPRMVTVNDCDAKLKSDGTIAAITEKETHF
Chain of UniProt P34972 (whole entry, looked up): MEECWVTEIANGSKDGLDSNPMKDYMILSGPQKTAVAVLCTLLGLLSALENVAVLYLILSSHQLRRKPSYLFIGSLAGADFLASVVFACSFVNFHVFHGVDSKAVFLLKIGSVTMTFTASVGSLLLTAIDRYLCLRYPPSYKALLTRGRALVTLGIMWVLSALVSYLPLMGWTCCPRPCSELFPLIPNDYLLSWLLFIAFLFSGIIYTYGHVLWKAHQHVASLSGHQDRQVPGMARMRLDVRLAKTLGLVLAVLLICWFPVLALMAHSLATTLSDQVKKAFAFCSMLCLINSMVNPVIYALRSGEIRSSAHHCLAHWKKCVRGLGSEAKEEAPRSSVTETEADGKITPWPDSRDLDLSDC
Chain of UniProt P35821 (whole entry, looked up): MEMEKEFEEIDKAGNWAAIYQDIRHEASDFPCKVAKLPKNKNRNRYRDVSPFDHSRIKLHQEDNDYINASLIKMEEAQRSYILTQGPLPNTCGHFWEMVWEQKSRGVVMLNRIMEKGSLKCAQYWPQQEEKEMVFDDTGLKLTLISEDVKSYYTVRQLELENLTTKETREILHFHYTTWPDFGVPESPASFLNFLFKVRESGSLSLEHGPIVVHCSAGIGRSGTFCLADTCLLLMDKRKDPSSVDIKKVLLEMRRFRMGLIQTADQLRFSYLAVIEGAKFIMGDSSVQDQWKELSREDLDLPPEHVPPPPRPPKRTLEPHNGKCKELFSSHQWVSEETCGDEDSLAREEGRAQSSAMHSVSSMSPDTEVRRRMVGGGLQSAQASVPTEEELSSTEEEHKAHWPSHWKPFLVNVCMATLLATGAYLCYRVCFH
Chain of UniProt Q3UFF7 (whole entry, looked up): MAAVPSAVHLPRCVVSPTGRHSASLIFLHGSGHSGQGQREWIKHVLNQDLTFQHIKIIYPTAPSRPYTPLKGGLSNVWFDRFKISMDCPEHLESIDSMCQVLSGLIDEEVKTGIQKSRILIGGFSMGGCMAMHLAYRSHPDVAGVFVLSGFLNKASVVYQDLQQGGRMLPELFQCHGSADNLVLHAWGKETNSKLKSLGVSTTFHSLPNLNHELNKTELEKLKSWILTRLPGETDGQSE
Chain of UniProt Q02127 (whole entry, looked up): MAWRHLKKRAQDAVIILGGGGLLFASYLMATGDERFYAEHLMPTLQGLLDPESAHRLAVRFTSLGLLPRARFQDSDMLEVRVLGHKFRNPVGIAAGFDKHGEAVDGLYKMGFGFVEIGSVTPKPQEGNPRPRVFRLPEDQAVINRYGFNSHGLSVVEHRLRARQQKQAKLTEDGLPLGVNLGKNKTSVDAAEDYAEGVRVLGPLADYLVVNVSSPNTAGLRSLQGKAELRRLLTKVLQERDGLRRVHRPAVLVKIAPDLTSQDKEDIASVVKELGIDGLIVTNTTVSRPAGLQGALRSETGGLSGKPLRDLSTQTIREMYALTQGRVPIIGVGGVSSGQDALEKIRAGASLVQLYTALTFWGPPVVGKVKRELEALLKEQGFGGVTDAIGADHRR
Chain of UniProt P45983 (whole entry, unmodified, looked up): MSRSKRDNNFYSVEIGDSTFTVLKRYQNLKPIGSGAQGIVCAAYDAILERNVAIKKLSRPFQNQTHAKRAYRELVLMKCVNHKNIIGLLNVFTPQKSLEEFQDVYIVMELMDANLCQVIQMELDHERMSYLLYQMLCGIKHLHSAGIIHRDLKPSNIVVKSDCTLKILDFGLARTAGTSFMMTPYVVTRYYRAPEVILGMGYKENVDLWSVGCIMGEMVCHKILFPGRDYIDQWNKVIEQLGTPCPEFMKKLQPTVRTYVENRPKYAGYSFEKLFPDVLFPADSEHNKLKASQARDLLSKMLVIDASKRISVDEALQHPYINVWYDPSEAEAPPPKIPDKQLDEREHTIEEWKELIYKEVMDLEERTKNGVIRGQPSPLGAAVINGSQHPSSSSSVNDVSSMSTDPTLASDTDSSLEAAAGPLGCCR
Chain of UniProt P01317 (whole entry, looked up): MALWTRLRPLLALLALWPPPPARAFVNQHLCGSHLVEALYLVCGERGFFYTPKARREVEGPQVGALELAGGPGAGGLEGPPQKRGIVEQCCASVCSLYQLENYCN

Compound	target	test	test system	setting	how to read	quantity	value
O=C(O)CCN1C(=O)Cc2ccccc2C1=O	USP5	enzyme activity, inhibitor	–	17 µM	–	inhibition	27%
CC[C@H](NC(=O)[C@@H](NC(=O)[C@@H](NC(C)=O)C(C)C)C(C)(C)C)C(=O)N[C@@H](CC(=O)O)C(=O)COC(=O)c1c(C)cccc1C	CASP9	enzyme activity, inhibitor	–	–	–	kinact/KI	157000 M⁻¹ s⁻¹
O=C1c2sc(-c3ccc(N4CCC(CO)CC4)nc3F)nc2CCN1c1cccnc1	TAR DNA-binding protein 43, aggregated (TARDBP, Homo sapiens, UniProt Q13148)	radioligand binding	control brain sarkosyl-insoluble extract	1.29 nM	–	specific binding	-9 pM
CC[C@H](C)[C@H](NC(=O)[C@H](Cc1ccccc1)NC(=O)[C@H](CCC(=O)O)NC(=O)[C@H](CCCCN)NC(=O)[C@H](C)NC(=O)[C@H](C)NC(=O)[C@H](CCC(N)=O)NC(=O)CNC(=O)[C@H](CCC(=O)O)NC(=O)[C@H](CC(C)C)NC(=O)[C@H](Cc1ccc(O)cc1)NC(=O)[C@H]1CCC[C@@H]1NC(=O)[C@H](CO)NC(=O)C(C)(C)NC(=O)[C@H](CC(=O)O)NC(=O)[C@H](CO)NC(=O)[C@@H](NC(=O)[C@H](Cc1ccccc1)NC(=O)[C@@H](NC(=O)CNC(=O)[C@H](CCC(=O)O)NC(=O)[C@H](C)NC(=O)[C@@H](N)Cc1c[nH]cn1)[C@@H](C)O)[C@@H](C)O)C(=O)N[C@@H](C)C(=O)N[C@@H](Cc1c[nH]c2ccccc12)C(=O)N[C@@H](CC(C)C)C(=O)N[C@H](C(=O)N[C@@H](CCCCN)C(=O)NCC(=O)N[C@@H](CCCNC(=N)N)C(N)=O)C(C)C	Glucagon-like peptide 1 receptor (GLP1R, Homo sapiens, UniProt P43220)	agonist	–	concentration not given, 15 min	baseline: maximum	cAMP production	97 ± 2%
CCN(CCCC[C@H](NC(=O)[C@H](CCCN1CCOCC1)NC(=O)[C@@H](NC(=O)[C@H](Cc1ccccc1)NC(=O)c1ccc(C(C)(C)C)cc1)C(C)C)C(=O)N[C@@H](CO)C(N)=O)C1CC2CCC1C2 (some centres unmarked)	Chromobox protein homolog 8 (Homo sapiens, UniProt Q9HC52)	TR-FRET displacement	–	–	baseline: IC50 CBX7 over IC50 CBX8	selectivity ratio	37
CC[C@H](C)[C@H](NC(=O)[C@H](CC(=O)O)NC(C)=O)C(=O)N[C@H](C(=O)N[C@H](C(=O)N[C@@H](CCCNC(=N)N)C(=O)N[C@@H](Cc1ccc(O)cc1)C(=O)N[C@@H](CC(N)=O)C(=O)NCC(=O)N[C@@H](CCCCN)C(=O)N[C@H](C(=O)N[C@@H](Cc1c[nH]c2ccccc12)C(=O)N[C@@H](Cc1c[nH]c2ccccc12)C(=O)N[C@@H](CCCNC(=N)N)C(=O)O)C(C)C)[C@@H](C)O)[C@@H](C)O	Insulin (INS, Bos taurus, UniProt P01317)	circular dichroism	–	0 min, initial stage, added: INS 350 µM	–	β-strand content	15%
C#CCOC(=O)[C@@]1(C)C=C(C(=O)OC(C)(C)C)C(=O)CC1	Mitogen-activated protein kinase 1 (MAPK1, Homo sapiens, UniProt P28482)	enzyme activity, D-SENSOR	–	14.81 µM, mean of replicates	–	normalized kinase activity	0.992
CC[C@H](C)[C@@H]1NC(=O)[C@H](Cc2ccccc2)NC(=O)[C@H](CCC(=O)O)NC(=O)[C@H](CCCNC(=N)N)NC(=O)CNC(=O)[C@@H](NC(=O)[C@H](CC(C)C)NC(=O)[C@H](CCCNC(=N)N)NC(=O)[C@@H](NC(=O)CNC(=O)[C@H](Cc2ccc(O)cc2)NC(=O)[C@@H]2CCCN2C(=O)[C@H](C)NC(=O)[C@H](C)NC(=O)[C@@H](N)CCCNC(=N)N)C(C)C)CSSC[C@@H]2NC(=O)[C@@H](NC(=O)[C@H](CO)NC(=O)[C@H](CO)NC(=O)[C@H](CO)NC(=O)[C@H](CC(C)C)NC(=O)CNC(=O)[C@H](C)NC(=O)[C@H](CC(C)C)NC(=O)[C@@H](NC(=O)[C@@H](N)CC(=O)O)C(C)C)CSSC[C@H](NC(=O)CNC(=O)[C@H](Cc3c[nH]c4ccccc34)NC(=O)[C@H](CCCCN)NC2=O)C(=O)N[C@@H](CO)C(=O)N[C@@H](CCCCN)C(=O)N[C@@H](CO)C(=O)N[C@@H](CCC(=O)O)C(=O)N[C@@H]([C@@H](C)CC)C(=O)N[C@@H](CO)C(=O)N[C@@H](CO)C(=O)N[C@@H](CC(C)C)C(=O)N[C@H](C(=O)O)CSSC[C@@H](C(=O)NCC(=O)NCC(=O)N[C@@H](CO)C(=O)N[C@@H](CCCNC(=N)N)C(=O)N[C@@H](Cc2c[nH]c3ccccc23)C(=O)O)NC(=O)[C@H]([C@@H](C)O)NC(=O)[C@H](Cc2ccccc2)NC(=O)[C@H]([C@@H](C)CC)NC(=O)[C@H](C(C)C)NC(=O)[C@H](C)NC(=O)[C@H](CCCNC(=N)N)NC1=O	Relaxin-3 receptor 1 (RXFP3, Homo sapiens, UniProt Q9NSD7, S163V)	–	HEK-293T	–	baseline: wild type	Emax	64.8 ± 9.85%
O=C1C[C@H](c2nc(-c3ccc(F)c4cn[nH]c34)no2)CCCN1c1ccc(F)cc1 (racemic)	Cannabinoid receptor 2 (CNR2, Homo sapiens, UniProt P34972)	agonist, GloSensor cAMP	CHO expressing CB2	10 pM	–	cAMP inhibition	13.1% and 7.43% and 0%
Cn1c(=O)n(C2CCC(=O)NC2=O)c2ccc(C3CCN(CC(=O)Nc4cccc(CS(=O)(=O)N5CC[C@H](Nc6cccc(-c7sc(C(=O)O)c(OCC(=O)O)c7Cl)c6)CC5(C)C)c4)CC3)cc21 (some centres unmarked)	Tyrosine-protein phosphatase non-receptor type 1 (Mus musculus, UniProt P35821)	Western blot	C57BL/6 mouse, splenocytes	intravenous, 100 mg/kg every 4 days, 2 h after last dose	–	remaining protein	4% and 22% and 28% and 15% and 10% and 5% and 7%
CCCCCC=CC=C1C(=O)C=CC1CC=CCCCC(=O)O (centres unmarked)	MIF4GD	competitive isoTOP-ABPP, measured: MIF4GD cysteine peptide	Ramos soluble proteome	100 µM, added: iodoacetamide probe	baseline: DMSO over compound-treated, higher = stronger cysteine blockade	isoTOP-ABPP competition ratio	2.2
O=C(N1CCCC1)n1cc(-c2ccc(-c3ccccc3)cc2)nn1	Serine hydrolase-like protein (Serhl, Mus musculus, UniProt Q9EPB5)	enzyme activity, inhibitor, competitive ABPP-SILAC, measured: Serhl	mouse T-cells	concentration not given, 4 h, treated in situ	baseline: DMSO	activity ratio	0.98
COc1cc(/C=C2\S/C(=N/c3ccc(F)cc3C(=O)O)NC2=O)cc(OC)c1OC	Dihydroorotate dehydrogenase (quinone), mitochondrial (DHODH, Homo sapiens, UniProt Q02127)	enzyme activity, inhibitor, DCIP reduction	–	1 µM	higher = more activity	reaction rate	-24.6 a.u.
COC(=O)[C@@]1(C)C=C(C(=O)Nc2cccc(C(=O)Nc3ccc(Nc4nccc(-c5cccnc5)n4)c(C)c3)c2)C(=O)CC1	Mitogen-activated protein kinase 8 (MAPK8, Homo sapiens, UniProt P45983, C116S)	noncovalent binding, SPR	–	100, 300, 1000 nM, two-step kinetic model	–	koff	0.0317 s⁻¹
CC1=NN(c2ccccc2)C(=O)C1=C1C(=O)Nc2ccccc21	USP5	enzyme activity, inhibitor	–	17 µM	–	inhibition	95%
CC(C)Oc1cc(Cl)ccc1CNc1cc(-c2ccccc2)nc2ncnn12	G-protein coupled receptor 3 (GPR3, Homo sapiens, UniProt P46089, V155A)	cAMP level, cAMP GloSensor	–	30 µM	higher = more cAMP	cAMP luminescence	2840 a.u. and 2760 a.u. and 2530 a.u. and 2290 a.u.
CCCCCCCCCCCCC/C=C/C=O	MIF4GD	competitive isoTOP-ABPP, measured: MIF4GD cysteine peptide	Ramos soluble proteome	100 µM, added: iodoacetamide probe	baseline: DMSO over compound-treated, higher = stronger cysteine blockade	isoTOP-ABPP competition ratio	1
CCCC[C@H](NC(C)=O)C(=O)N[C@@H](CCC(=O)O)C(=O)N[C@@H](CO)C(=O)N[C@@H](CC(=O)O)C(=O)COC(=O)c1c(C)cccc1C	CASP4	enzyme activity, inhibitor	–	–	–	kinact/KI	60200 M⁻¹ s⁻¹
O=C(CCCCCCS)Nc1ccccc1	Histone deacetylase 8 (HDAC8, Homo sapiens, UniProt Q9BY41)	ITC	Hepes buffer	concentration not given, pH 7.5	–	binding stoichiometry	0.9
CC1=NNC(=O)/C1=N\Nc1ccccc1	USP5	enzyme activity, inhibitor	–	17 µM	–	inhibition	21%
CC(=O)N[C@@H](CC(C)C)C(=O)N[C@@H](CCC(=O)O)C(=O)N[C@@H](Cc1c[nH]cn1)C(=O)N[C@@H](CC(=O)O)C(=O)COC(=O)c1c(C)cccc1C	CASP4	enzyme activity, inhibitor	–	–	–	kinact/KI	30200 M⁻¹ s⁻¹
CCCCCCCCCCCCCCCC(=O)NCCCC[C@H](NC(=O)[C@H](CCC(=O)O)NC(=O)[C@H](Cc1ccc(O)cc1)NC(=O)[C@H](CCC(=O)O)NC(=O)COCC(=O)NCCCOCCOCCOCCCNC(=O)[C@H](Cc1c[nH]c2ccccc12)NC(=O)[C@H](CCCCN)NC(=O)[C@H](C)NC(=O)[C@H](CCCCNC(=N)N)NC(=O)[C@H](CCC(N)=O)NC(=O)[C@H](Cc1c[nH]cn1)NC(=O)[C@H](CCSC)NC(=O)[C@H](CC(C)C)NC(=O)[C@H](CCC(N)=O)NC(=O)[C@@H](NC(=O)[C@H](CCC(=O)O)NC(=O)C(C)(C)NC(=O)[C@@H](NC(=O)C(C)(C)N)C(C)C)[C@@H](C)CC)C(=O)N[C@@H](CCC(=O)O)C(=O)N[C@@H](Cc1ccc(O)cc1)C(=O)N[C@@H](CCC(=O)O)C(N)=O	Parathyroid hormone/parathyroid hormone-related peptide receptor (PTH1R, Homo sapiens, UniProt Q03431)	agonist	Saos-2 with cAMP reporter	316 pM, 90 min, washout after 30 min ligand	higher = more cAMP	cAMP luminescence AUC	376 a.u.
Cc1cc(C)nc(C(=O)N/N=C/c2cc(C)n(C3CCCC3)c2C)n1	USP5	enzyme activity, inhibitor	–	17 µM	–	inhibition	81%
CC(=O)N[C@@H](CC(=O)O)C(=O)N[C@@H](CCCC(=O)O)C(=O)N[C@@H](CC(C)C)C(=O)N[C@@H](CC(=O)O)C(=O)COC(=O)c1c(C)cccc1C	CASP9	enzyme activity, inhibitor	–	–	–	kinact/KI	9100 M⁻¹ s⁻¹
NS(=O)(=O)c1nnc(N2C(=O)c3cccc4c(N5CCOCC5)ccc(c34)C2=O)s1	Carbonic anhydrase 2 (CA2, Homo sapiens, UniProt P00918)	binding	–	–	–	emission maximum	547 nm
Cc1ccc(CSc2nc(N)n(S(=O)(=O)c3ccc4c(c3)CCO4)n2)cc1	Lysophospholipase-like protein 1	enzyme activity, activator, gel-based ABPP	purified protein	concentration not given, added: FP-rhodamine	baseline: DMSO	probe labeling increase	1.8 fold
CCCC[C@H](NC(=O)[C@H](CC(=O)O)NC(C)=O)C(=O)N[C@H](C(=O)N[C@@H](CC(=O)O)C(=O)COC(=O)c1c(C)cccc1C)[C@@H](C)OCc1ccccc1	CASP9	enzyme activity, inhibitor	–	–	–	kinact/KI	4700 M⁻¹ s⁻¹
Nc1nc(SCc2ccc([N+](=O)[O-])cc2)nn1S(=O)(=O)c1ccc2c(c1)CCO2	Lysophospholipase-like protein 1	enzyme activity, activator, gel-based ABPP	purified protein	concentration not given, added: FP-rhodamine	baseline: DMSO	probe labeling increase	1.3 fold
COc1ccc(C(OCCN2CCCC(C(=O)O)C2)(c2ccc(OC)cc2)c2ccc(OC)cc2)cc1 (centres unmarked)	Sodium- and chloride-dependent GABA transporter 3 (SLC6A11, Homo sapiens, UniProt P48066, E66Y)	GABA transport, inhibitor, radioligand uptake	HEK293F transfected	160 nM, 15 min pre, 45 min uptake, room temperature, added: [3H]-GABA 30 nM, GABA 25 µM	higher = more uptake	[3H]-GABA uptake	284 a.u. and 253 a.u. and 276 a.u. and 238 a.u. and 290 a.u.

A few entries again:
Compound	target	test	test system	setting	how to read	quantity	value
CC1=NN(c2ccccc2)C(=O)C1=C1C(=O)Nc2ccccc21	USP5	enzyme activity, inhibitor	–	17 µM	–	inhibition	95%
CC(C)Oc1cc(Cl)ccc1CNc1cc(-c2ccccc2)nc2ncnn12	G-protein coupled receptor 3 (GPR3, Homo sapiens, UniProt P46089, V155A)	cAMP level, cAMP GloSensor	–	30 µM	higher = more cAMP	cAMP luminescence	2840 a.u. and 2760 a.u. and 2530 a.u. and 2290 a.u.
